Measured values of several laboratories.
Numbered parts are unrelated; each lists some results of a single study.
Chain of UniProt Q52WX2 (whole entry, looked up): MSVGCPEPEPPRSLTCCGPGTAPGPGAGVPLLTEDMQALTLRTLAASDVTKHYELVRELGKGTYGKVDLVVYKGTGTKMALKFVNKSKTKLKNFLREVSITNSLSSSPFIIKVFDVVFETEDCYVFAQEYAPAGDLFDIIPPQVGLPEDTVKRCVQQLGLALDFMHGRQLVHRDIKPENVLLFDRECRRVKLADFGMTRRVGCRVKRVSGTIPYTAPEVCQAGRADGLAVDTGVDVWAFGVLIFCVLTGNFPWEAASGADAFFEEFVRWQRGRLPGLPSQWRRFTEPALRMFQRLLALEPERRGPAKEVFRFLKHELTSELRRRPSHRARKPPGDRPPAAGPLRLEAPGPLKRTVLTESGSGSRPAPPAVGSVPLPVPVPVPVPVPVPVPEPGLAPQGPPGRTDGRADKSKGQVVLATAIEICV
Chain of UniProt Q5TCY1 (whole entry, looked up): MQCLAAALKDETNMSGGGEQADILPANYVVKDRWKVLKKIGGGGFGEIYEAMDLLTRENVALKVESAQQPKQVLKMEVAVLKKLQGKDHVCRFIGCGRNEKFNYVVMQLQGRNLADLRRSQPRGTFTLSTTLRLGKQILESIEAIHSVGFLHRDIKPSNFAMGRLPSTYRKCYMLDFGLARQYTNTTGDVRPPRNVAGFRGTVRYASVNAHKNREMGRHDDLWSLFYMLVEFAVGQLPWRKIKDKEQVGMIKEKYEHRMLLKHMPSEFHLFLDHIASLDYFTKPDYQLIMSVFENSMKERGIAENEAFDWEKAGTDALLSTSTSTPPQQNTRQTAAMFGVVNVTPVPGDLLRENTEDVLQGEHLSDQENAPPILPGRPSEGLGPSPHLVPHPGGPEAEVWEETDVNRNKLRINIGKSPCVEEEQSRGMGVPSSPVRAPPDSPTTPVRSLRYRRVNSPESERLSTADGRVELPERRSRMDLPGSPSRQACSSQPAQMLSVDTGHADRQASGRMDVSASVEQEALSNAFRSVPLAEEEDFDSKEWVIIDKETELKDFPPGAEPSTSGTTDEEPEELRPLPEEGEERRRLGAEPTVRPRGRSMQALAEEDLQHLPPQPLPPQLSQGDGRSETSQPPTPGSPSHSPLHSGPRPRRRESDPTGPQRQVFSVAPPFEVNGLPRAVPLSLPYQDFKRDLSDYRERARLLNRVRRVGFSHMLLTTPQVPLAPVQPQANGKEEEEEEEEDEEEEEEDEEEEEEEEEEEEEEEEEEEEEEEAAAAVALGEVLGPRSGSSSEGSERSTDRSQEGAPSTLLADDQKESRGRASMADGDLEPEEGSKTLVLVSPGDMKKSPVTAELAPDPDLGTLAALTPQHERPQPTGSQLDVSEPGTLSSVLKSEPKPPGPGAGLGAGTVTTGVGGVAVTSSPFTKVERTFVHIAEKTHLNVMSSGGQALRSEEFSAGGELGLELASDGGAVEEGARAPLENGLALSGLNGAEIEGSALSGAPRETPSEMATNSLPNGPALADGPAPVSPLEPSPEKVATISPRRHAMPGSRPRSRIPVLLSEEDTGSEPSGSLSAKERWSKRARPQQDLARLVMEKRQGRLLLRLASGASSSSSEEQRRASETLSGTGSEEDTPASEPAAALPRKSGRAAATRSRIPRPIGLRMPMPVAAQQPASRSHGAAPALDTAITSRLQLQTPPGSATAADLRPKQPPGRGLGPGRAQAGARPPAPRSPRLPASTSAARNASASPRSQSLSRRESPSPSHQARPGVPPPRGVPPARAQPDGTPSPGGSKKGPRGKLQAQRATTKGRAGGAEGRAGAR
Chain of UniProt Q96AM1 (whole entry, looked up): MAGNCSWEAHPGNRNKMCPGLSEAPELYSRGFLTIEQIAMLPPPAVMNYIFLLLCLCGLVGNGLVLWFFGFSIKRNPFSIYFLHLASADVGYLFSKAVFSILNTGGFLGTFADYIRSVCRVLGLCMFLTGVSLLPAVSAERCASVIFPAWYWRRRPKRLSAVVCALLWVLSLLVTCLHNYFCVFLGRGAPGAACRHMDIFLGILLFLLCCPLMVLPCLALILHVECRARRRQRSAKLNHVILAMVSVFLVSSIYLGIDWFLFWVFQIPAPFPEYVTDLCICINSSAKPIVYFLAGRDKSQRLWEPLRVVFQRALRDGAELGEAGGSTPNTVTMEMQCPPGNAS
Chain of UniProt Q8NFJ5 (whole entry, looked up): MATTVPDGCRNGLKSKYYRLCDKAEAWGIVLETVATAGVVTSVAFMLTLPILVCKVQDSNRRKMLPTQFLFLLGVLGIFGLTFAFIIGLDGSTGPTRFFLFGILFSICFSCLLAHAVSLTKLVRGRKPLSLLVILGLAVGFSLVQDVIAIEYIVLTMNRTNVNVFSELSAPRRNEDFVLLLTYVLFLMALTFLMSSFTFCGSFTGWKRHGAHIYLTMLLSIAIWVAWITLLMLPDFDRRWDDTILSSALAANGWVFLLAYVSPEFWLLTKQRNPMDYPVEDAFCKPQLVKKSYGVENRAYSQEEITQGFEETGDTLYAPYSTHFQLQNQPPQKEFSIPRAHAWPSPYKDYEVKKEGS
Chain of UniProt P46092 (whole entry, looked up): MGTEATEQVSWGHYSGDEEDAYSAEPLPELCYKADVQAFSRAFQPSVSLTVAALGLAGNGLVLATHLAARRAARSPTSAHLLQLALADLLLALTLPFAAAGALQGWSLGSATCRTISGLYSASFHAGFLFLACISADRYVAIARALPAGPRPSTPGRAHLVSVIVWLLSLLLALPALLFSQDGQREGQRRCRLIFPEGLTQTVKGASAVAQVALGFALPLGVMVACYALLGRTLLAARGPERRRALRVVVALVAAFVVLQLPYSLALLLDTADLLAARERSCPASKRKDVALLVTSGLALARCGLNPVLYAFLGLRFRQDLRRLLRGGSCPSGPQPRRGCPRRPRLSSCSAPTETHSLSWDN
Chain of UniProt P41146 (whole entry, looked up): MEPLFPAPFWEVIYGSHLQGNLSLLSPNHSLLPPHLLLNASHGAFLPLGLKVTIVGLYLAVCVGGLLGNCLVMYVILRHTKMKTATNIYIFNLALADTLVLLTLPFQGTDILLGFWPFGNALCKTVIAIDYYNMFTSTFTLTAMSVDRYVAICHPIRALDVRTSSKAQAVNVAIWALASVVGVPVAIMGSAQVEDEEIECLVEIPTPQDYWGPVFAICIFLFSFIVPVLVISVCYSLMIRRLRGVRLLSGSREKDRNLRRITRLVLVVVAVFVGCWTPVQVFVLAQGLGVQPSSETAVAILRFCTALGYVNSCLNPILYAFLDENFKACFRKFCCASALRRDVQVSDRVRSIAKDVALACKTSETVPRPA
Chain of UniProt Q13324 (whole entry, looked up): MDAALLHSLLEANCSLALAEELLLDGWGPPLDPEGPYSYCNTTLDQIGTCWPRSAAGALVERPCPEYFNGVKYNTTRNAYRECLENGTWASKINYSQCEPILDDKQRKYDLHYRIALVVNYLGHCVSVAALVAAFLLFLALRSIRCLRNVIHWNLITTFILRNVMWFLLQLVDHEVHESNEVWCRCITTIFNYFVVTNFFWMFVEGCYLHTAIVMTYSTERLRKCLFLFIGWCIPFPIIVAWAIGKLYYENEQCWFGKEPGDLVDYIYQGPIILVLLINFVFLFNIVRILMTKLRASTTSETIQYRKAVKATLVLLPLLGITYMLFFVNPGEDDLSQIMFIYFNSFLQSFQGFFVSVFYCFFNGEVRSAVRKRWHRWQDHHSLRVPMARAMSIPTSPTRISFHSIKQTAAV
Chain of UniProt Q9BQI3 (whole entry, looked up): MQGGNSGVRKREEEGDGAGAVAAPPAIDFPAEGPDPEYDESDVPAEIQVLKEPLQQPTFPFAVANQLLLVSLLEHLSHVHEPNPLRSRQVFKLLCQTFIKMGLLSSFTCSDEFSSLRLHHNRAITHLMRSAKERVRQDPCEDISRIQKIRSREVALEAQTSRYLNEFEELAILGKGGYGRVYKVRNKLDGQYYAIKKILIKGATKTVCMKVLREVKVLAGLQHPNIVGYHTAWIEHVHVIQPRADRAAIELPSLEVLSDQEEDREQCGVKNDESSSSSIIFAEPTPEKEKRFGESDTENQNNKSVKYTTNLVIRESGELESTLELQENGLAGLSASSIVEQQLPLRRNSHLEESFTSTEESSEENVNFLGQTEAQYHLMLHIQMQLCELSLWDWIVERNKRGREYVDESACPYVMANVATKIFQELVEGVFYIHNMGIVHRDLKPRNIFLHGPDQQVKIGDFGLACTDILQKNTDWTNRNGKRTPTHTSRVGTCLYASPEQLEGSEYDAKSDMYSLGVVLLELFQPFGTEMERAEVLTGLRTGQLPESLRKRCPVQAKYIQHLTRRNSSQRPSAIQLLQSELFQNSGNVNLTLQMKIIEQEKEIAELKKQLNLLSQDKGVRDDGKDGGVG
Chain of UniProt P35346 (whole entry, looked up): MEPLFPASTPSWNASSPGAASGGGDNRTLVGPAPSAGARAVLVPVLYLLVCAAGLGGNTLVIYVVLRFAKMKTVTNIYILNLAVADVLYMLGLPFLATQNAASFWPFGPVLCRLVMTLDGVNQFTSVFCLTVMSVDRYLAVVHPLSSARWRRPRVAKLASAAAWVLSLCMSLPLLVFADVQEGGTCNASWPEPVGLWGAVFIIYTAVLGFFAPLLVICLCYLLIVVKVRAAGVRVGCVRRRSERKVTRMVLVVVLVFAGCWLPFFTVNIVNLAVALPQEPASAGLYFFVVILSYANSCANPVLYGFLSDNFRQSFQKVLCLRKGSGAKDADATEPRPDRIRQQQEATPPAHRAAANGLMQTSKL

Series 1
Compound: NC(N)=NC(=O)c1nc(Cl)c(N2CCCCCC2)nc1N
Mode: agonist
Tested at: 10 µM
Reference: untreated
target | observed | method | fold over basal
C-C chemokine receptor type 10 (CCR10, Homo sapiens, UniProt P46092) | β-arrestin recruitment | PRESTO-Tango | 0.86
Corticotropin-releasing factor receptor 2 (CRHR2, Homo sapiens, UniProt Q13324) | β-arrestin recruitment | PRESTO-Tango | 1.01
Nociceptin receptor (OPRL1, Homo sapiens, UniProt P41146) |  | PRESTO-Tango arrestin recruitment | 0.71
C-C chemokine receptor type 5 (CCR5, Homo sapiens, UniProt P51681) | β-arrestin recruitment | PRESTO-Tango | 0.91
Mas-related G-protein coupled receptor member F (MRGPRF, Homo sapiens, UniProt Q96AM1) | β-arrestin recruitment | PRESTO-Tango | 1.04
Thyrotropin receptor (TSHR, Homo sapiens, UniProt P16473) | β-arrestin recruitment | PRESTO-Tango | 0.76 fold
Retinoic acid-induced protein 3 (GPRC5A, Homo sapiens, UniProt Q8NFJ5) | β-arrestin recruitment | PRESTO-Tango | 0.76
Somatostatin receptor type 5 (SSTR5, Homo sapiens, UniProt P35346) | β-arrestin recruitment | PRESTO-Tango | 0.75 fold

Series 2
Organism: Sarcocystis neurona
Observed: parasite growth
Tested at: 10 µM
Time: 96 h
Reference: untreated
Structure (SMILES) | log2 fold change
C[C@@](Cc1ccc(O)c(O)c1)(NN)C(=O)O | 0.26
CO[C@H]1/C=C/O[C@@]2(C)Oc3c(C)c(O)c4c(O)c(c(/C=N/N5CCN(C)CC5)c(O)c4c3C2=O)NC(=O)/C(C)=C\C=C\[C@H](C)[C@H](O)[C@@H](C)[C@@H](O)[C@@H](C)[C@H](OC(C)=O)[C@@H]1C | 0.51
O=C1CN2Cc3c(ccc(Cl)c3Cl)N=C2N1 | 0.3
CC(C)(C)NC[C@H](O)COc1nsnc1N1CCOCC1 | 0.39
COc1ccc(-c2cc(=O)c3c(OC)c(OC)c(OC)c(OC)c3o2)cc1OC | -0.27
C[C@@H](c1ncncc1F)[C@](O)(Cn1cncn1)c1ccc(F)cc1F | 0.28
COC1=C(OC)C(=O)C(CCCCCCCCCCO)=C(C)C1=O | 0.33
CCn1cc(C(=O)O)c(=O)c2ccc(C)nc21 | 0.31
C[C@@H]1CN(CCCn2c3ccccc3c3ccccc32)C[C@H](C)N1 | -0.19
CN(CCOc1ccc(CC2SC(=O)NC2=O)cc1)c1ccccn1 (stereo not shown) | -0.17
C#C[C@]1(O)CC[C@H]2[C@@H]3CCc4cc(O)ccc4[C@H]3CC[C@@]21C | 0.52
C=C1/C(=C\C=C2/CCC[C@]3(C)[C@@H]([C@H](C)/C=C/[C@@H](O)C4CC4)CC[C@@H]23)C[C@@H](O)C[C@@H]1O | 0.31
NCc1ccc(S(N)(=O)=O)cc1 | 0.44

Series 3
SMILES: CC(C)S(=O)(=O)c1ccc2nccc(Nc3ccc4sc(C5CCCC5)nc4c3)c2c1
Observed: enzyme activity
Mode: inhibitor
Tested at: 1 µM
target | activity vs control [%]
Serine/threonine-protein kinase SBK1 (SBK1, Homo sapiens, UniProt Q52WX2) | 102
Cell division cycle 7-related protein kinase (CDC7, Homo sapiens, UniProt O00311) | 90
Tau-tubulin kinase 1 (TTBK1, Homo sapiens, UniProt Q5TCY1) | 100
Serine/threonine-protein kinase 10 (STK10, Homo sapiens, UniProt O94804) | 99
Eukaryotic translation initiation factor 2-alpha kinase 1 (EIF2AK1, Homo sapiens, UniProt Q9BQI3) | 122
Cyclin-dependent kinase 1, with cyclin B (CDK1, Homo sapiens, UniProt P06493) | 80.5

Series 4
Target: Diamine acetyltransferase 1 (Homo sapiens, UniProt P21673)
Mode: inhibitor
Tested at: 10 µM
Reference: control
Target sequence (P21673 1-171): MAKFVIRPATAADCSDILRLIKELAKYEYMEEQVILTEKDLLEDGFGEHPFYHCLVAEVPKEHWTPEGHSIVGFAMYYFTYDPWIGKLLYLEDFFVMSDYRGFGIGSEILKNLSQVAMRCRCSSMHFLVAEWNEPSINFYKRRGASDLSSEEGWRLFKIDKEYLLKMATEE
Structure (SMILES) | remaining activity [%]
CCCCCCCCC[C@H](O)CC(=O)CCc1ccc(O)c(OC)c1 | 115
CCCCCCCCCCCCCCCCCCCCCCCC | 100
O=c1cc(-c2ccc(O)cc2)oc2c([C@@H]3OC[C@@H](O)[C@H](O)[C@H]3O)c(O)c([C@@H]3O[C@H](CO)[C@@H](O)[C@H](O)[C@H]3O)c(O)c12 | 100
O=C(O)c1cccc(O)c1O | 101
OC/C=C/c1ccccc1 | 82.5
O=C(O)/C=C/CCCCCCCCC(=O)O | 103
CC12CCC(C1)C(C)(C)C2O (stereo not shown) | 108
CCOC(=O)c1cc(O)c(O)c(O)c1 | 97.5
CC(C)[C@@H]1CC[C@@H](C)C[C@H]1O | 87.3

Series 5
Target: Beta-3 adrenergic receptor (ADRB3, Homo sapiens, UniProt P13945)
Chain of UniProt P13945 (whole entry, looked up): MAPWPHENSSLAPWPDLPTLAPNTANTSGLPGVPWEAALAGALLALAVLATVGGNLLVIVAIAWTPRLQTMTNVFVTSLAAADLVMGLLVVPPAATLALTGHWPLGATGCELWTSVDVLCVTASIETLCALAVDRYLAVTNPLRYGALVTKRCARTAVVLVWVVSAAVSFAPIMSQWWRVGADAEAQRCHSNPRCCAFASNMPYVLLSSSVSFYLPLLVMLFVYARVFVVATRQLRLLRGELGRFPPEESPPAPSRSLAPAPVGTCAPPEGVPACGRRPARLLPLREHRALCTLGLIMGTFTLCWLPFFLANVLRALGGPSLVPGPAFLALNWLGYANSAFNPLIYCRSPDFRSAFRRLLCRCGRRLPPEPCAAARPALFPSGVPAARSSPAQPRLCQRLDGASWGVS
Observed: ligand displacement
Tested at: 10 µM
Structure (SMILES) | inhibition
C[C@H](c1ccc(F)cc1)N(Cc1cccc(C(=O)O)c1)C(=O)c1cnc2ccccc2c1 | 2.81%
O=C(Nc1ccc(Oc2ccc(F)cc2)cc1)N1CCc2ncccc2[C@H]1c1ccc(F)cc1 | 29.4%
Nc1nc(NCc2ccccc2)nc(-c2ccccc2CO)n1 | 14.8%
Cc1ccc(-c2cnc([C@@]3(O)CC[C@H](C(=O)O)C(C)(C)C3)s2)cc1Nc1cccc(C(F)(F)F)n1 | -6.54%
Nc1nc(NCc2ccccc2)nc(-c2cccc(CO)c2)n1 | 17.8%
Cc1ccccc1Oc1cc(-n2c(=O)cc(C(F)(F)F)[nH]c2=O)c2ccccc2c1Cl | 22.9%
CNC(=O)Nc1ccc2c(c1)CC[C@]21OC(=O)N(CC(=O)N(Cc2ccc(F)cc2)[C@@H](C)C(F)(F)F)C1=O | -13.9%
CNC(=N)NCCC[C@H](NC(=O)[C@H](CC(C)C)NC(=O)NNC(=O)[C@H](Cc1ccccc1)NC(=O)[C@H](CO)NC(=O)[C@H](CC(N)=O)NC(=O)[C@@H](Cc1ccncc1)NC(=O)[C@H](N)Cc1ccc(O)cc1)C(=O)N[C@@H](Cc1ccccc1)C(N)=O | 7.1%
CN([C@@H]1CCc2c(CC(=O)O)c3ccccc3n2C1)S(=O)(=O)c1ccc(F)cc1 | 26.9%
O=S(=O)(NC1CCC(c2cc(F)ccc2F)(S(=O)(=O)c2ccc(Cl)cc2)CC1)C(F)(F)F (stereo not shown) | 13.5%
CN1CCN(c2ccnc(NCCc3ccccc3)n2)CC1 | 2.45%
N#CC1(c2ccccn2)CCN(Cc2cc(C(=O)N3CCCC3)c(=O)n3ccccc23)CC1 | 17.4%
CC1=C(C#N)C(c2ccc3[nH]nc(C)c3c2)C(C#N)=C(C)N1 | 21.1%
Cc1noc([C@H]2C[C@@H](c3ccc(C(F)(F)F)cc3)CN(C(=O)N3CCS(=O)(=O)C3)C2)n1 | 19.3%
Cc1c(NC(=O)c2cc(C(N)=O)nc3cc(F)ccc23)c(C(F)(F)F)nn1Cc1ccc(C#N)cc1 | -17.8%
COc1cccc(NC(=O)c2nc3scc(CN(C)Cc4ccccc4)c3c(=O)[nH]2)c1 | -4.01%
Cn1cc(Cl)c2c(Oc3c(F)cc(Nc4cc(Cl)nc(N)n4)cc3F)ccnc21 | 3.48%
NC(=O)c1ccc2nc(-c3ccc(C4(N)CCC4)cc3)c(-c3ccccc3)n2n1 | 11.4%
CCC(=NO)C(C)=Cc1ccc(F)c(C)c1 | 11.1%
CO[C@H]1CC[C@H](CNc2ccc(S(=O)(=O)NC(=O)c3ccc(N4CCN(CC5=C(c6ccc(Cl)cc6)CC(C)(C)CC5)CC4)cc3Oc3cnc4[nH]ccc4c3)cc2[N+](=O)[O-])CC1 | -6.65%
NS(=O)(=O)c1cc(NC(=O)Cc2ccccc2)ccc1Oc1cccc(Cl)c1 | 46.3%
C[C@H](c1ccnc(Nc2nc3ccc(-c4cc(N(C)C)ncn4)cc3[nH]2)c1)N1CCN(C(=O)CC(F)(F)F)CC1 | 30.4%
O=C(NCCCC1CCCCC1)c1ccc(CNC(=O)c2cnn(-c3ccccc3)c2C(F)(F)F)cc1 | 21.7%
Cn1nc(C(=O)NCc2ccc(C(=O)O)cc2)cc1-c1ccc2[nH]ccc2c1 | 2.13%
CN(C)CC#Cc1ccc(OCCCc2sc(N3CCc4cccc(C(=O)Nc5nc6ccccc6s5)c4C3)nc2C(=O)O)c(F)c1 | 3.53%

Some of these lines once more (series 5):
Structure (SMILES) | inhibition
C[C@H](c1ccnc(Nc2nc3ccc(-c4cc(N(C)C)ncn4)cc3[nH]2)c1)N1CCN(C(=O)CC(F)(F)F)CC1 | 30.4%
NC(=O)c1ccc2nc(-c3ccc(C4(N)CCC4)cc3)c(-c3ccccc3)n2n1 | 11.4%
CN(C)CC#Cc1ccc(OCCCc2sc(N3CCc4cccc(C(=O)Nc5nc6ccccc6s5)c4C3)nc2C(=O)O)c(F)c1 | 3.53%
O=C(Nc1ccc(Oc2ccc(F)cc2)cc1)N1CCc2ncccc2[C@H]1c1ccc(F)cc1 | 29.4%
CCC(=NO)C(C)=Cc1ccc(F)c(C)c1 | 11.1%
N#CC1(c2ccccn2)CCN(Cc2cc(C(=O)N3CCCC3)c(=O)n3ccccc23)CC1 | 17.4%
